{"data": "Experimental data gathered from unrelated publications", "note": "Lines come from different studies, so protocols differ. Numbers after ± are the reported error."}
{"SMILES": "CCOC(=O)[C@H](C)NP(=O)(N[C@@H](C)C(=O)OCC)c1ccc(-c2nc(N)sc2CC(C)C)o1", "system": "wild-type mice, fasted 16 h, blood", "setting": "intraperitoneal, 75 mg/kg, 2 to 3 h", "measurement": "blood glucose decrease", "result": "~40%"}
{"SMILES": "CC[C@H](C)[C@H](NC(=O)[C@H](CC(N)=O)NC(=O)[C@H](CC(N)=O)NC(=O)[C@H](CCCNC(=N)N)NC(=O)[C@H](CC(N)=O)NC(=O)[C@H](CCCNC(=N)N)NC(=O)[C@H](CCCCN)NC(=O)[C@@H](NC(=O)[C@H](CC(N)=O)NC(=O)[C@H](CCSC)NC(=O)[C@H](CC(C)C)NC(=O)[C@H](Cc1c[nH]c2ccccc12)NC(=O)[C@@H]1CSCc2ccc(cc2)-c2ccc(cc2)CSC[C@H](NC(=O)[C@H](CCC(=O)O)NC(=O)[C@H](CC(=O)O)NC(=O)[C@H](CC(C)C)NC(=O)[C@H](Cc2ccc(O)cc2)NC(=O)[C@H](CCCCN)NC(=O)[C@H](CO)NC(=O)[C@H](Cc2ccc(O)cc2)NC(=O)[C@H](CC(=O)O)NC(=O)[C@H](CO)NC(=O)[C@@H](NC(=O)[C@H](Cc2ccccc2)NC(=O)[C@@H](NC(=O)CNC(=O)[C@H](CCC(N)=O)NC(=O)[C@@H](CO)NC(=O)[C@@H](N)Cc2c[nH]cn2)[C@@H](C)O)[C@@H](C)O)C(=O)N[C@@H](C)C(=O)N[C@@H](C)C(=O)N[C@@H](CCCCN)C(=O)N[C@@H](CCC(=O)O)C(=O)N[C@@H](Cc2ccccc2)C(=O)N[C@@H]([C@@H](C)CC)C(=O)N1)[C@@H](C)O)C(=O)N[C@@H](C)C(N)=O", "system": "mice", "setting": "subcutaneous, 10 µg/mouse, 4 h before glucose, oral glucose tolerance test", "measurement": "blood glucose", "result": "40%"}
{"SMILES": "CCNC(=S)NNS(=O)(=O)c1ccc2c(c1)n(C)c(=O)c(=O)n2C", "test": "IPGTT", "system": "HFD/STZ diabetic male albino mice", "setting": "10 mg/kg, 2 h", "measurement": "blood glucose", "result": "126 ± 7.15 mg/dL"}
{"SMILES": "CC/C=C\\C/C=C\\C/C=C\\C/C=C\\C/C=C\\CCCCOC(CC)C(=O)O (centres unmarked)", "system": "ob/ob mice", "setting": "in diet, 135 mg/kg/day, 4 weeks", "how to read": "reference: control", "measurement": "blood glucose change", "result": "-50%"}
{"SMILES": "CC1SC(N/N=C2\\c3ccccc3-c3nc4cc(F)ccc4nc32)=NC1=O (centres unmarked)", "system": "mice with STZ-induced diabetes", "setting": "oral, 25 mg/kg, 288 h, day 12", "measurement": "blood glucose", "result": "318 ± 27.7 mg/dL"}
{"SMILES": "Cn1c(=O)c(=O)n(C)c2cc(S(=O)(=O)NNC(=S)Nc3ccccc3)ccc21", "test": "IPGTT", "system": "HFD/STZ diabetic male albino mice", "setting": "10 mg/kg, 6 h", "measurement": "blood glucose", "result": "85.3 ± 5.3 mg/dL"}
{"SMILES": "O=C(OCc1cccc(O)c1O)c1ccc(O)c(CO)c1", "system": "p47phox knockout mice", "setting": "intraperitoneal, 2.5 mg/kg/day, 14 days, together with: angiotensin II 0.8 mg/kg/day", "measurement": "blood pressure", "result": "no effect"}
{"SMILES": "NC(=S)N/N=C1\\c2ccccc2-c2nc3cc(F)ccc3nc21", "system": "mice with STZ-induced diabetes", "setting": "oral, 25 mg/kg, 144 h, day 6", "measurement": "blood glucose", "result": "258 ± 16.6 mg/dL"}
{"note": "Some of these lines once more:"}
{"SMILES": "CC/C=C\\C/C=C\\C/C=C\\C/C=C\\C/C=C\\CCCCOC(CC)C(=O)O (centres unmarked)", "system": "ob/ob mice", "setting": "in diet, 135 mg/kg/day, 4 weeks", "how to read": "reference: control", "measurement": "blood glucose change", "result": "-50%"}
